Assay results gathered from unrelated publications.
Numbered parts are unrelated; each lists some results of a single study. Changes are numbered by the printed parent chain.
Sequence of UniProt O23661 (whole entry, looked up): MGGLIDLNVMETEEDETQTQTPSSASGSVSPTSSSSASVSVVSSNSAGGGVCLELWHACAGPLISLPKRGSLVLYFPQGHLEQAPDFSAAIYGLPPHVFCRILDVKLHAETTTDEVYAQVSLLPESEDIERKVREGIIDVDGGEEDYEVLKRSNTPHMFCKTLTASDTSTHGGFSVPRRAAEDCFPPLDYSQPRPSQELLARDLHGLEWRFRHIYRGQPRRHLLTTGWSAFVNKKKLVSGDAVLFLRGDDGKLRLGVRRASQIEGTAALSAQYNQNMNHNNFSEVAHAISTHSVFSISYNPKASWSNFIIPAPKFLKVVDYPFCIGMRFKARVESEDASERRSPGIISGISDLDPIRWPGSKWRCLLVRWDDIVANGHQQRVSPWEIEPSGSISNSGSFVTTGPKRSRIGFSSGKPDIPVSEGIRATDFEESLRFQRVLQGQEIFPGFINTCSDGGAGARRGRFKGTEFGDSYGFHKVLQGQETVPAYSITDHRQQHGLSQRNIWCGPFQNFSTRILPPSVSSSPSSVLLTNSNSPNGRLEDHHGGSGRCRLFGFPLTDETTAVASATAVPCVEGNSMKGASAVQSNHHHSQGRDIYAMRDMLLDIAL

Block 1 — target: OGT, full length, His-tagged (human); technique: phage display, sequencing; sample: in vitro; tested at: 1 µg OGT; reference: input library; reading: higher = stronger binding; starting sequence: peptide; GDFPVMFMPKYSIIY
Notes: single substitutions, 15-mer displayed peptide, unchanged parent 5.27
Change | fold enrichment
K10E | 1.84 fold
D2P | 4.52 fold
I13T | 0.862 fold
I14H | 1.4 fold
I13M | 1.45 fold
D2K | 7.1 fold
M6A | 1.06 fold
F7T | 1.35 fold

Block 2 — technique: Spec-seq; molecule type: double-stranded DNA, one strand shown; sample: in vitro; tested at: not given; notes: whole probe, mean of replicates; reference: not given; reading: lower = stronger binding; constant ends, left off below: GAGTCGTCTCGTCAGCAC … CCGTAGAGCACTCAGGTC
Target: POU, POU domain (Salpingoeca helianthica)
Residues (chain): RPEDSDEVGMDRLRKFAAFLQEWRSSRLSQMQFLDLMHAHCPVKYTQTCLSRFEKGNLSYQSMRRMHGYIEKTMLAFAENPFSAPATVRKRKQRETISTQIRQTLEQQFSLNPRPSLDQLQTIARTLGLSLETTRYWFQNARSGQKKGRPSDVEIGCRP
Strand | relative binding energy
GTCTTAAT | 0.455 ln ratio
ATGCTCAA | 1.3 ln ratio
ATGCGGGC | 1.41 ln ratio
ATGCTGAT | 1.22 ln ratio
GATATAAT | 0.26 ln ratio
CGAGTAAT | 0.182 ln ratio
ATGCACTC | 1.19 ln ratio
ATGCAAAT | 0.437 ln ratio

Mixed results
B1: ARF1 538-665 (Arabidopsis thaliana, UniProt Q8L7G0); chain SRQIRSCTKVHMQGSAVGRAIDLTRSECYEDLFKKLEEMFDIKGELLESTKKWQVVYTDDEDDMMMVGDDPWNEFCGMVRKIFIYTPEEVKKLSPKNKLAVNARMQLKADAEENGNTEGRSSSMAGSR
P1: viral docking peptide; CKVKRKLFGSENI; partner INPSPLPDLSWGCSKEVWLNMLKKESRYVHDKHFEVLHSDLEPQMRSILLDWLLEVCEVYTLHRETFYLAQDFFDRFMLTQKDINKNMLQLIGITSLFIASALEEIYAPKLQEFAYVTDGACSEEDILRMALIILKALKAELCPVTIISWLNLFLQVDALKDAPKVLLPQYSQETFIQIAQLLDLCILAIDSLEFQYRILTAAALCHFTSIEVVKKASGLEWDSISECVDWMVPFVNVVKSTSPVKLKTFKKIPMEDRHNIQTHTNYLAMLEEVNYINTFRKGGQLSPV
Substance | target or system | assay | test system | setting | scale | endpoint | result
B1 (ARF1 538-665) | ETT (Arabidopsis thaliana, UniProt O23661) | two-hybrid |  |  | reference: out of 4 tests, higher = firmer interaction | positive tests | 0
P1 K2A | CCNE2, cyclin fold, Cln2 fusion (human) | yeast growth competition, sequencing | yeast | strong parent motif | reference: not given, higher = stronger binding | normalised enrichment score | 3.24
